# Published values gathered from unrelated publications.
# Parts stem from different laboratories: compare values within a part only.

# Study 1
# Target: Sox, HMG box (Pigoraptor chileana)
# Method: Spec-seq
# Molecule type: double-stranded DNA, one strand shown
# Sample: in vitro
# Concentration: not given
# Notes: whole probe, mean of replicates
# Relative to: not given
# Reading: lower = stronger binding
# Target sequence (chain): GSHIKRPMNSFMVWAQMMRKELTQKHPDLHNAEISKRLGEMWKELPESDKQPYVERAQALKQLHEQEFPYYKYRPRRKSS
Sequence,relative binding energy
GAGTCGTCTCGTCAGCACCATATTACCGTAGAGCACTCAGGTC,0.133 ln ratio
GAGTCGTCTCGTCAGCACCATGTTCCCGTAGAGCACTCAGGTC,0.764 ln ratio
GAGTCGTCTCGTCAGCACTGGTGTTCCGTAGAGCACTCAGGTC,0.23 ln ratio

# Study 2
# Target: Histone acetyltransferase KAT6A, winged helix 1, GST fusion (KAT6A, Homo sapiens, UniProt Q92794, residues 1-85)
# Method: protein binding microarray
# Molecule type: double-stranded DNA, one strand shown
# Sample: in vitro
# Concentration: not given
# Notes: 8-mer, flanks averaged, mean of 2 arrays, mostly near background
# Relative to: not given
# Reading: higher = stronger binding
# Residues (chain): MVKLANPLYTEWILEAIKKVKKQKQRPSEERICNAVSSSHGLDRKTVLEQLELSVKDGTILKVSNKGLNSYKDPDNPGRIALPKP
Sequence,E-score
GTCATTAA,-0.125
CCCTCCTC,-0.32
AATAACGC,0.0878
GGGATTGA,-0.0431

# Study 3
# Target: Ras GTPase-activating protein-binding protein 1, C-terminal RGG region (G3BP1, Homo sapiens, UniProt Q13283)
# UniProt Q13283, sequence (whole entry, looked up): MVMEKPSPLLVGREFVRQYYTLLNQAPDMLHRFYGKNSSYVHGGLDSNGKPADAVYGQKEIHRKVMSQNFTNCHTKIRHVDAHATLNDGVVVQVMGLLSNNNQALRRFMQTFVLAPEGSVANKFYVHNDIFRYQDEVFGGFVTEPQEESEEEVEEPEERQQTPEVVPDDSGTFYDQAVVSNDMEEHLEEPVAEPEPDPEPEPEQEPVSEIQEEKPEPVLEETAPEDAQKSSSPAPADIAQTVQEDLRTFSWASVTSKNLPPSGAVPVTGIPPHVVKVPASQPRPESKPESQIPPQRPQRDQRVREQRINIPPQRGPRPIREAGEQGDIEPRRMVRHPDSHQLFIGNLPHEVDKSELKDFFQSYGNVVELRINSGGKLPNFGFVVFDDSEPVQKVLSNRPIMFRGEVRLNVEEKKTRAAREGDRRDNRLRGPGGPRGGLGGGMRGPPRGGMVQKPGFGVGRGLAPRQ
# Method: RNA Bind-n-Seq
# Molecule type: RNA
# Sample: in vitro
# Concentration: 1 µM
# Notes: whole 134-nt RNA, ends assumed
# With: 150 mM KCl
# Relative to: input library
# Reading: higher = stronger binding
Sequence,log2 enrichment
GGGAGUUCUACAGUCCGACGAUCGUCCUGUGCUACACAUCGUAUGUACCGAAUCAAAUUUUUUUAAACCCAAAUUUUUAAAAAAGUAUUAUGUUACGCCGUUCGGAUCUGCACUGGAAUUCUCGGGUGUCAAGG,-1.44
GGGAGUUCUACAGUCCGACGAUCACCAUGCAGGUGGGCGUCUUUGGGAAGUGGGGCAAGGGGGGGAUAGGGAGGGGGGUAACACUUUGGGAACAGGUGGUCCCAGGUCGUUUCUGGAAUUCUCGGGUGUCAAGG,-1.41
GGGAGUUCUACAGUCCGACGAUCCACAGACAACACGCACCCACACAGACACAGAGGGAAGGGGUUGGGAUGGGGACAGGGUGCACAGCAGGGCGGGGUAGGACCCCAGCGCCUUGGAAUUCUCGGGUGUCAAGG,-0.751
GGGAGUUCUACAGUCCGACGAUCUAGAGACUUCAGAUGGAUUUUAAAAUUGAACACACUUGGGAUGGUUUUCCAGUGAAGCAUGAGCCCGUAUUUAUCAGGCUGAAUCCAGGUUGGAAUUCUCGGGUGUCAAGG,-1.8

# Further values, each from its own experiment
Substance,target,assay,test system,setting,scale,measurement,value
"PhoQ, residues 284 288 289 292 302 303 SIHLQL","PhoP, residues 12 14 15 18 19 GQAIL (Escherichia coli, UniProt P23836)","Sort-seq, item: YFP reporter",E. coli,"PhoQ-PhoP variant library, with: 10 µM Mg2+","relative to: high Mg2+ state, higher = stronger signaling",fold induction,9.94

# A few entries again (study 1):
Sequence,relative binding energy
GAGTCGTCTCGTCAGCACTGGTGTTCCGTAGAGCACTCAGGTC,0.23 ln ratio
GAGTCGTCTCGTCAGCACCATATTACCGTAGAGCACTCAGGTC,0.133 ln ratio
